Experimental data gathered from unrelated publications.
Compare with care: the assays were run in different laboratories. ± gives the spread as reported.
UniProt Q9H2X6, sequence (whole entry, looked up): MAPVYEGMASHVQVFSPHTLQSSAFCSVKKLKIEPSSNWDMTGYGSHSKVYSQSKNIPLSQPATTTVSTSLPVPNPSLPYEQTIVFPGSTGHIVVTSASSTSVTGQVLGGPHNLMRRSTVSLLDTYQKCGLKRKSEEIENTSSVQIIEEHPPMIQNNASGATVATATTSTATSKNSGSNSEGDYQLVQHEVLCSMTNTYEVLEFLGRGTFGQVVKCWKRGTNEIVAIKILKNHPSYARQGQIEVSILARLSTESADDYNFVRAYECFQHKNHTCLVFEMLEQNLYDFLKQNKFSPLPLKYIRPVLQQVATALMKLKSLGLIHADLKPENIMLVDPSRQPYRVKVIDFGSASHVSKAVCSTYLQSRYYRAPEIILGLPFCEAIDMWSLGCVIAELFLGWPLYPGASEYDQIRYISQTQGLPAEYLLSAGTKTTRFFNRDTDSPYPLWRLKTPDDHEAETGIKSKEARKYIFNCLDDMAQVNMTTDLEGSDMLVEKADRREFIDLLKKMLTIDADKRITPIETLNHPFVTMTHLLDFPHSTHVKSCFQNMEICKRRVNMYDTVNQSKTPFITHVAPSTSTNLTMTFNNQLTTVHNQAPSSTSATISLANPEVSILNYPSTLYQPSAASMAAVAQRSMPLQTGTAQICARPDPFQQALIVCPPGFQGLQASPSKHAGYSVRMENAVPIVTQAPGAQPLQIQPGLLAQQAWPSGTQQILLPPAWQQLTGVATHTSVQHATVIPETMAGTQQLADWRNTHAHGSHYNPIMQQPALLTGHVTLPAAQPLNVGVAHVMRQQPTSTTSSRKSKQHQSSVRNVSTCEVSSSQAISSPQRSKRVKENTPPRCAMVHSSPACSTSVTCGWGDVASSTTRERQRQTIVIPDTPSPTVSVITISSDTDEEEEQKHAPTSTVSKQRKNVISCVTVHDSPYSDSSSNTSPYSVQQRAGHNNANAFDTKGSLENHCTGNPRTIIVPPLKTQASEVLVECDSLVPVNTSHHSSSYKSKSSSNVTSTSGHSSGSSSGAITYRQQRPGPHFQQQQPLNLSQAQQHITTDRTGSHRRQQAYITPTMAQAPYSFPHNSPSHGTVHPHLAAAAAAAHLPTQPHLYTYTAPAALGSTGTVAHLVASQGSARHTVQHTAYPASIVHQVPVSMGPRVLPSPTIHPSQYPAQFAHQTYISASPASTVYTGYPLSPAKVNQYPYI
UniProt P07947, sequence (whole entry, looked up): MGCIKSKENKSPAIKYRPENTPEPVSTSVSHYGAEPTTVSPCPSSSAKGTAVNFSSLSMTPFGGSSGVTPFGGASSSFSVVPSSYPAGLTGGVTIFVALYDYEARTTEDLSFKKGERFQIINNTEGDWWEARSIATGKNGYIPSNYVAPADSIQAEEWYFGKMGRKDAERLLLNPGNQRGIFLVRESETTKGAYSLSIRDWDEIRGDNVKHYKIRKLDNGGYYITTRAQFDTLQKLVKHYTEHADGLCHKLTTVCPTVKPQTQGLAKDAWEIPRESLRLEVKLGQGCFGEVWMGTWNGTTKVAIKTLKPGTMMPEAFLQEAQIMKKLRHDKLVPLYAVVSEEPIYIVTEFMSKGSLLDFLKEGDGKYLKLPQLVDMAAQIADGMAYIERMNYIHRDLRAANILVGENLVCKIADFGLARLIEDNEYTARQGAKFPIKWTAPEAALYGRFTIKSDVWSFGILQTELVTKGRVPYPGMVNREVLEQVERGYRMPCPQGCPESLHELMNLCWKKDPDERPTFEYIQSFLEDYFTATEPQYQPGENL
UniProt P97612, sequence (whole entry, looked up): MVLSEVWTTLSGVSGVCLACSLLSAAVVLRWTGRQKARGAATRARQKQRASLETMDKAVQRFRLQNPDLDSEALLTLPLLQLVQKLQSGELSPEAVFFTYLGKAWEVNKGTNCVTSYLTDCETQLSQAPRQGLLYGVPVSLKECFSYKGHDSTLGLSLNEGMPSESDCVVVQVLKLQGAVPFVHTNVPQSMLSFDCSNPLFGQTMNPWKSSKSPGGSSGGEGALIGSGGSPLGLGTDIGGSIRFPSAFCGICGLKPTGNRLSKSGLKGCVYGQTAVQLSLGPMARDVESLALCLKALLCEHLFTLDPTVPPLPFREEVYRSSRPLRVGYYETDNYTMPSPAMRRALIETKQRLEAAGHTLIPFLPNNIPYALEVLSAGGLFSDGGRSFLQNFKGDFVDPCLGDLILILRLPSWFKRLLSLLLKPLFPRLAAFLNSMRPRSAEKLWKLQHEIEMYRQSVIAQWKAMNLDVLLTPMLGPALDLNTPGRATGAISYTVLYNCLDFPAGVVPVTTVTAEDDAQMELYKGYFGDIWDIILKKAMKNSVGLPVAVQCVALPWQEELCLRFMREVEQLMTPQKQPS
UniProt Q13546, sequence (whole entry, looked up): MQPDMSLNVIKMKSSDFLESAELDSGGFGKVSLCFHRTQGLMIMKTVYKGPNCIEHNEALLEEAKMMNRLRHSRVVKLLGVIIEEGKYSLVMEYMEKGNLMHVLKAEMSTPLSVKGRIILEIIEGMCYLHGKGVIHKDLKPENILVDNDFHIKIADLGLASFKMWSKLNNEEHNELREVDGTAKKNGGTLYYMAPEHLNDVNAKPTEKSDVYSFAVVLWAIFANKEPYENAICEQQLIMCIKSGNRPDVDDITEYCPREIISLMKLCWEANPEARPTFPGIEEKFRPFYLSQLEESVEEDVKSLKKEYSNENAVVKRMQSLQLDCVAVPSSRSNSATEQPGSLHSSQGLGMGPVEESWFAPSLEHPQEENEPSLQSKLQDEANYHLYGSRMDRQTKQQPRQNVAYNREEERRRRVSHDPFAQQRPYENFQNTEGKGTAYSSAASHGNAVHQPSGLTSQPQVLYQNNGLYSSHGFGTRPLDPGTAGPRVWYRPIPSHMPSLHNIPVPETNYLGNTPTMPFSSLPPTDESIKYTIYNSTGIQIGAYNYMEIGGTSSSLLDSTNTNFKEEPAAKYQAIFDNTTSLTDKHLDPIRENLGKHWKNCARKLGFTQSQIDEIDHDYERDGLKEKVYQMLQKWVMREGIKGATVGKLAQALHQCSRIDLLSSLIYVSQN
UniProt Q13705, sequence (whole entry, looked up): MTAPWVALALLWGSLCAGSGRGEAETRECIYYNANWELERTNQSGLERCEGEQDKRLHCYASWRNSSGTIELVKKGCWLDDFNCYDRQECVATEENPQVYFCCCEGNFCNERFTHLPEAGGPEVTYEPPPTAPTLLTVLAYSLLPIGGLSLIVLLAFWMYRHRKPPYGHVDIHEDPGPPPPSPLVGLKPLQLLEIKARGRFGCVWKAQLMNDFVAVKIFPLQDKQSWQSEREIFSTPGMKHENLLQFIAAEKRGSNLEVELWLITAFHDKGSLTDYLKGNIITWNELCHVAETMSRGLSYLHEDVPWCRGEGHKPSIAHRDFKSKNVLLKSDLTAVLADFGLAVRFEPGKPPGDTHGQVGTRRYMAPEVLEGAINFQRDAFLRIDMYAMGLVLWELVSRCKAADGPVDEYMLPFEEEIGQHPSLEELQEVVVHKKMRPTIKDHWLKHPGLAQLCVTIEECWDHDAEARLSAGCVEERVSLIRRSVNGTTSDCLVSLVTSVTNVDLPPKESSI
UniProt P09936, sequence (whole entry, looked up): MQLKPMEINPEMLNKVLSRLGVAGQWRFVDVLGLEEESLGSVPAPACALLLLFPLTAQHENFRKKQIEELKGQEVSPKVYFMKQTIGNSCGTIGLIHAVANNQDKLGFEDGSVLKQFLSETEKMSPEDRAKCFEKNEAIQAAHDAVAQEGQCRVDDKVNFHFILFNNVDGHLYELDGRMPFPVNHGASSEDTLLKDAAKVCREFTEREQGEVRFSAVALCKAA
UniProt O14804, sequence (whole entry, looked up): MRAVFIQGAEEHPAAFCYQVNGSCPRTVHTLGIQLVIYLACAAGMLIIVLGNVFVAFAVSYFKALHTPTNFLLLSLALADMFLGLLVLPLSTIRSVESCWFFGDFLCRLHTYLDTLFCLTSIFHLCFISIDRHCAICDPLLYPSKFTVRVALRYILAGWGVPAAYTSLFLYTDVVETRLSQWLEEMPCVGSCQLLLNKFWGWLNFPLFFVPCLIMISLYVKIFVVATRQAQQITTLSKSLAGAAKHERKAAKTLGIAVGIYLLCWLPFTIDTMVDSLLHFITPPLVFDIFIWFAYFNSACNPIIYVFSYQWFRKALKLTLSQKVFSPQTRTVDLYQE
UniProt P63208, sequence (whole entry, looked up): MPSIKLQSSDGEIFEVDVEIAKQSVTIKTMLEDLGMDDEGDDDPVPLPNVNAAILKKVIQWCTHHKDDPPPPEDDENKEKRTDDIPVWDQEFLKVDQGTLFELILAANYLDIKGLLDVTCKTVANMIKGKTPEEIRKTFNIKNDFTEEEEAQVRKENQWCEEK
UniProt Q96ES7, sequence (whole entry, looked up): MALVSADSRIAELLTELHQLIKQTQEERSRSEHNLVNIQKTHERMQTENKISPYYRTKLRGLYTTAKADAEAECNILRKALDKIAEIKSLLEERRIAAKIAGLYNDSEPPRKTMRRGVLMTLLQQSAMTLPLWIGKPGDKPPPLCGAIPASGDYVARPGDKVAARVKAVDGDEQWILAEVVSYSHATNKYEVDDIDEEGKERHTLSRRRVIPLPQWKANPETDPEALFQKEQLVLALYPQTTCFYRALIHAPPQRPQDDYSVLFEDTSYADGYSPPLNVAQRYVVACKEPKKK
UniProt O75884, sequence (whole entry, looked up): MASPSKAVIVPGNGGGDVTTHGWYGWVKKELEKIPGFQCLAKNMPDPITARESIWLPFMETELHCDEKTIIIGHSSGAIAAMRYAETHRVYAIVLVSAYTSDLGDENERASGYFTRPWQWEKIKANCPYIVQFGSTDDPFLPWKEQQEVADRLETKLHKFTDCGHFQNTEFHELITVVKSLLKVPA

Compound = COc1cc(Nc2ncc(F)c(Nc3ccc4c(n3)NC(=O)C(C)(C)O4)n2)cc(OC)c1OC; target = Activin receptor type-2B (ACVR2B, Homo sapiens, UniProt Q13705); assay = KINOMEscan; conditions = 10 µM; measurement = inhibition; value = 0%
Compound = COc1ccc(N2C(=O)N(c3c(C)cccc3Cl)Cc3cnc(Nc4ccc(C5CCN(C)CC5)cc4OC)nc32)nc1; target = Tyrosine-protein kinase Yes (YES1, Homo sapiens, UniProt P07947); assay = kinase activity, inhibitor; conditions = 0.5 µM, kinase YES; measurement = inhibition; value = 98%
Compound = CN(CC(=O)O)C(=N)NP(=O)(O)O; target = Creatine kinase U-type, mitochondrial (CKMT1A, Homo sapiens, UniProt P12532); assay = substrate, Kinase-Glo luminescence; conditions = pH 7.0, reverse reaction, WT mutant, with: second substrate in excess; measurement = Km; value = 170 ± 10 µM
Compound = C[C@H]1CN(c2n[nH]c3nc(N[C@H]4CC[C@H](NS(=O)(=O)CCC(F)(F)F)CC4)ncc23)CCO1; target = Prohibitin 1 (PHB1, Homo sapiens, UniProt P35232); assay = competitor, Kinobeads competition; test system = human cell extract; conditions = 0.032 µM; how to read = baseline: vehicle; measurement = relative abundance; value = 1.01
Compound = O=C(Nc1cnccc1Cl)N1CCN(Cc2ccc3c(c2)OC(F)(F)O3)CC1; target = kainate receptor, rat; assay = binding; conditions = 10 µM, with: [3H]kainic acid; measurement = inhibition; value = 9%
Compound = Cc1ncsc1-c1ccc([C@H](CC(=O)N2CCN(c3ccc(C#Cc4ccc(C(=O)N5CCC(n6cc(-c7ccc8c(c7)CCN8C(=O)Cc7cccc(OC(F)(F)F)c7)c7c(N)ncnc76)CC5)cc4)cn3)CC2)NC(=O)[C@@H]2C[C@@H](O)CN2C(=O)[C@@H](NC(=O)C2(F)CC2)C(C)(C)C)cc1; target = Receptor-interacting serine/threonine-protein kinase 1 (RIPK1, Homo sapiens, UniProt Q13546); assay = degrader, Western blot; test system = Jurkat cells; conditions = 100 nM; measurement = time to complete degradation; value = ≤ 2 h
Compound = C[C@H](N)C(=O)N[C@@H](CCCNC(=N)N)C(=O)N[C@H](C(=O)N[C@@H](CCCCC(C)(C)C)C(=O)N[C@@H](CCC(N)=O)C(=O)N[C@H](C(=O)N[C@@H](C)C(=O)N[C@@H](CCCNC(N)=O)C(=O)N[C@@H](CCCCN)C(=O)N[C@@H](CO)C(=O)N[C@H](C(=O)NCC(=O)NCC(=O)N[C@@H](CCCCN)C(=O)N[C@@H](C)C(=O)N[C@@H](Cc1ccc(O)cc1)C(N)=O)[C@@H](C)O)[C@@H](C)O)[C@@H](C)O; target = SGF29, TTD (Homo sapiens, UniProt Q96ES7); assay = binding, ITC; how to read = baseline: Kme3 peptide KD over compound KD; measurement = preference over Kme3 peptide; value = 1.7 fold
Compound = COc1cc(N)c(Cl)cc1C(=O)NC1CN2CCC1CC2 (centres unmarked); target = Trace amine-associated receptor 5 (TAAR5, Homo sapiens, UniProt O14804); assay = β-arrestin recruitment, TANGO luminescence; conditions = concentration not given; how to read = baseline: basal luminescence; measurement = log2 fold change; value = 0.354
Compound = CC(=O)NC[C@H]1[C@H](O)[C@H](O)[C@@H]2[C@H](O)C[C@@H](CO)N21; target = human placental β-N-acetylglucosaminidase; conditions = 0.00322 µM, run 2, with: p-nitrophenyl GlcNAc; measurement = inhibition; value = 34.1%
Compound = O=C(c1ccc(Cl)cc1)N1CCN2C(=O)N(OC(=O)N3CCOc4ccccc43)C(=O)C2C1 (centres unmarked); target = Serine hydrolase RBBP9 (Homo sapiens, UniProt O75884); assay = enzyme activity, inhibitor, MS-based ABPP; test system = SW-620 conditioned medium; conditions = 10 µM, 1 h, 37 °C; how to read = baseline: compound over DMSO, lower = stronger inhibition; measurement = median ratio; value = 1.3
Compound = CCOC(=O)CC(CC(=O)OCC)(OC(C)=O)C(=O)OCC; target = S-phase kinase-associated protein 1 (SKP1, Homo sapiens, UniProt P63208); assay = binding, affinity selection mass spectrometry; conditions = 100 nM, pooled screen; how to read = baseline: other proteins; measurement = fold change; value = 10.8
Compound = O=C(Nc1cccnn1)N1CCC(=Cc2cccc(Oc3ccc(C(F)(F)F)cn3)c2)CC1; target = Homeodomain-interacting protein kinase 2 (HIPK2, Homo sapiens, UniProt Q9H2X6); assay = kinase activity, inhibitor; conditions = 10 µM, with: myelin basic protein substrate; measurement = inhibition; value = 1%
Compound = CC(=O)P(=O)(O)OCCc1cn([C@H](Cc2ccccc2)C(=O)O)nn1; target = 1-deoxy-D-xylulose-5-phosphate synthase (dxs, Escherichia coli, UniProt P77488, R99A); assay = inhibitor, DXPS-IspC coupled; how to read = baseline: wild-type enzyme; measurement = IC50 fold increase; value = 50 fold
Compound = CCOC(=O)CC(SP(=O)(OC)OC)C(=O)OCC (centres unmarked); target = uncharacterized protein (Anopheles coluzzii, UniProt A0A6E8VQK1); assay = enzyme activity, inhibitor; test system = Sf9 cell homogenate; conditions = 0.4587 µM, 0.1667 h, with: α-naphthyl acetate substrate; how to read = baseline: no inhibitor; measurement = remaining activity; value = 23.5%
Compound = CN(C(=O)n1cnc(-c2ccc[n+]([O-])c2)c1)C1CCCCC1; target = Fatty-acid amide hydrolase 1 (Faah, Rattus norvegicus, UniProt P97612); assay = enzyme activity, ABPP; test system = rat, brain; conditions = oral, 10 mg/kg/day, 28 days; how to read = baseline: vehicle; measurement = fold change; value = -59
Compound = N/C(=N\N=C\c1ccc(-c2cccc([N+](=O)[O-])c2)o1)N[N+](=O)[O-]; target = Transient receptor potential cation channel subfamily M member 8 (TRPM8, Homo sapiens, UniProt Q7Z2W7); assay = antagonist; test system = HEK293; conditions = 5 µM; how to read = baseline: control; measurement = remaining activity; value = 82.1 ± 2.04%
Compound = C#CCN1C(=O)C2(C(C#N)=C(N)OC(C)=C2C(=O)OC(C)(C)C)c2ccccc21 (centres unmarked); target = Ubiquitin carboxyl-terminal hydrolase isozyme L1 (UCHL1, Homo sapiens, UniProt P09936); assay = covalent, intact protein LC-MS; conditions = 12.5 µM; measurement = labelling; value = 21.7%
